Published values from different studies.
Every numbered part comes from another study and shows a few of its results, in no order. Positions count from the first letter of the parent shown.

Study 1
Target: Centromere-binding protein 1, full length, N-terminal tag (CBF1, Saccharomyces cerevisiae, UniProt P17106, residues 1-351)
Chain of UniProt P17106 (whole entry, looked up): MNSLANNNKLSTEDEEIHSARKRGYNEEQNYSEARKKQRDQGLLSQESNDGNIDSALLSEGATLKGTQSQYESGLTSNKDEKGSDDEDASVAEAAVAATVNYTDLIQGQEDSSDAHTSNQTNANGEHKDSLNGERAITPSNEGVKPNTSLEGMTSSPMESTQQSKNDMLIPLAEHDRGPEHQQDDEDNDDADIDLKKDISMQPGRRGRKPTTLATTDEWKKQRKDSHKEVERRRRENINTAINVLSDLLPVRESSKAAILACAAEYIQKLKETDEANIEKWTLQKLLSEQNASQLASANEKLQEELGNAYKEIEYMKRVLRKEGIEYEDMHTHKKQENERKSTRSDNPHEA
Method: protein-binding microarray
Form: double-stranded DNA, one strand shown
Matrix: in vitro
Tested at: 0.8 µM
Setting: whole 60-bp probe, no competitor
Reading: higher = stronger binding
Constant ends, left off below: … GTCTTGATTCGCTTGACGCTGCTG
Strand	fluorescence intensity
CCTAACTACTATAATCACACCTAATAGCTTCGTACA	563 a.u.
CTAAAGTATTTCACCCACGTATGGCAGGCAAGATTC	492 a.u.
GAATATACGTCTATTAAGGTGACTGACAAGGATTAG	518 a.u.
GAATCACTGGTGATGCACGCCCAGCGTGTAGTCTAG	502 a.u.
CTATCGTAAAGGTGCCACGGGGATCCCAATGATTTC	561 a.u.
GAAGAAATATCATGTTGTGATGTTAGAAAATATTAG	560 a.u.
GAAGATTTGGACAATTACACGAGATCTTTATTATAG	728 a.u.
GAAACAAGAACATCTGGTGAAGCAGGCTACCCCTAG	486 a.u.
GAAATCGTTTACAGCCATGTGAGGCAGTTACTTTAG	587 a.u.
GAAAGATACGGTATGCCCGTGTATTTATCCTCCTAG	483 a.u.
CCTAACTACTATAGTGATGCGCCATAGCTTCGTACA	498 a.u.

Study 2
Target: CCND2, cyclin fold, Cln2 fusion (human)
Method: yeast growth competition, sequencing
Matrix: yeast
Setting: weak parent motif
Relative to: not given
Reading: higher = stronger binding
Parent: WEE1 docking peptide (human); HKTFRKLRLFDTP; partner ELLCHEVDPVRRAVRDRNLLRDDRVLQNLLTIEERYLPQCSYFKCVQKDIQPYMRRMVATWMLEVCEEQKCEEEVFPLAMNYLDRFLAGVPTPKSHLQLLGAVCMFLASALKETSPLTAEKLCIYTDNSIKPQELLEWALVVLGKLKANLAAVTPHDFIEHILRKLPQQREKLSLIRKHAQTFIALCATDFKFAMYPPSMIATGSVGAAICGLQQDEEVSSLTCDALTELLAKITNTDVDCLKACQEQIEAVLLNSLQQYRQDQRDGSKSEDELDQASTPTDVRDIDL
Variant	normalised enrichment score
D11F	0.115
P13V	0.14
T3N	-0.46
F4N	0.11
P13I	-0.0786
D11P	0.345
T3K	-0.276
F4M	0.491

Study 3
Target: RNA binding protein fox-1 homolog 2, RRM domain, GST-SBP tag (RBFOX2, Homo sapiens, UniProt O43251-10, residues 100-194)
Method: RNA Bind-n-Seq
Form: RNA
Matrix: in vitro
Tested at: 365 nM
Setting: natural RNA segment, single round, ends assumed
Relative to: no-protein control
Reading: higher = stronger binding
Constant ends, left off below: GGGAGUUCUACAGUCCGACGAUC … UGGAAUUCUCGGGUGCCAA
Target sequence (chain): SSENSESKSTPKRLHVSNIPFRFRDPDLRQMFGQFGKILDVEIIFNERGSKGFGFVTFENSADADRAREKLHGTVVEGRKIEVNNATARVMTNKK
Strand	RBNS enrichment (R)
UUUUAUGAUGGUUAGACUUCUGGACAUGGACUCAUCUUGUGAGAAGAUUUGAAUAAUGACCAAUUCUAAAAUCAAUAACGUUCCAUUUGCUUAUGUAGCACUUCUGGACC	0.316
UCUCAUCCCUAUCUCCAGUCAAAGAUGGGAUUGCUUAAUCCAACUCUGGAGAGGGACCAAGUCUUUUCUGCCCACAUCUCACACAAUUGAGGUGUCUGAACAAGCUUGGG	0.242
CUUCUCCUUACUUCUUAUCCCCAACUCCCUACCCACCCCUCUUCAGUUUUCAGAUUGGAGAUUCAAGAUUUGUUCCACUUUACAAGCAAGAGGAAAAAAAAGCAACCUUC	0.781
CCCUGAAAUCUGAAGGGCUUAGUUAGUACCUUGCCACUCUACCCCCAACACGUCACCCGAGUAGAAGCUGGGCAAGGCCCUACCAUCCUGGCCGUCUGUUCACAAGCCCA	0.791
CGCCGUGGGCUGCGUCCUUUGGUCCUGUCCCCGCAGCCCUGGCAGGGGGCAUGCGGUCGGGCAGGGGCUGGAGGGAGGCGGGGGCUGCCCUUGGGCCACCCCUCCUAGUU	0.363
CCAUUGCUAGGGAGAGACUUCCAGUAAUAAAAUUUACUAUUCUAGAUGCUUCUACUGUUAUGUUUUAUCUGCCCAUUUAUCUUUCUUAGUUACCAGGAGAAAUGUGUGAC	1.95
AACAAUUCAGACAGAAAGGGAAAGUCCCUGAGGCAAAGUCUCUCUAGCCAGAGACCUAUGCAUCCCGAAUGGCCACUAAGGCAGUCCUGAAGGGCCCUCCAGGGUGAUGA	0.217
UGGCAUUUGGGGUGACAUCUCAAAGGCCAGGAAUUCCGUUGACUUGUUGGCUGCCAGUAGGGGCGGGAGGAAAGGCGGAGGCGAGCCCUGGAGGAGGGAGGCCACAACUC	0.532

Other studies, line by line
Molecule	target	test	system	conditions	scale	endpoint	value
PhoQ, residues 284 288 289 292 302 303 TLSLKA	PhoP, residues 12 14 15 18 19 TPLRH (Escherichia coli, UniProt P23836)	Sort-seq, measured: YFP reporter	E. coli	PhoQ-PhoP variant library, added: 10 µM Mg2+	relative to: high Mg2+ state, higher = stronger signaling	fold induction	16.5
